Measurements of several laboratories.
PPARA ligand-binding domain: Peroxisome proliferator-activated receptor alpha, ligand-binding domain (PPARA, Homo sapiens, UniProt Q07869)
Chain of UniProt Q07869 (whole entry, looked up): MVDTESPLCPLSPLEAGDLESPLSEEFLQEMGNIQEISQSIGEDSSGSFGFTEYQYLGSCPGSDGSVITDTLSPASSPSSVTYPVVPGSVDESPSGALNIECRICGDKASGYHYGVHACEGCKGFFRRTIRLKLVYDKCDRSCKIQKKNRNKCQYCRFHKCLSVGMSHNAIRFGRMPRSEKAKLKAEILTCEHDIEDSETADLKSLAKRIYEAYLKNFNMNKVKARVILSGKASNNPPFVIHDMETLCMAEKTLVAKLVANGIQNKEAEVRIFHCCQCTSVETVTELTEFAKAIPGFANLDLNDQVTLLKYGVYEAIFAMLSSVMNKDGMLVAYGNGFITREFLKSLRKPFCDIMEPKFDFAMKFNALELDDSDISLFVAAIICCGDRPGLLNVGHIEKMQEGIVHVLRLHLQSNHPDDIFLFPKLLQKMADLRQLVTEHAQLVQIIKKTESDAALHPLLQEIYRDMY
Chymotrypsinogen A: Chymotrypsinogen A (Bos taurus, UniProt P00766)
GBA2: Beta-glucosidase (GBA2, Homo sapiens, UniProt Q9HCG7)
Chain of UniProt Q9HCG7 (whole entry, looked up): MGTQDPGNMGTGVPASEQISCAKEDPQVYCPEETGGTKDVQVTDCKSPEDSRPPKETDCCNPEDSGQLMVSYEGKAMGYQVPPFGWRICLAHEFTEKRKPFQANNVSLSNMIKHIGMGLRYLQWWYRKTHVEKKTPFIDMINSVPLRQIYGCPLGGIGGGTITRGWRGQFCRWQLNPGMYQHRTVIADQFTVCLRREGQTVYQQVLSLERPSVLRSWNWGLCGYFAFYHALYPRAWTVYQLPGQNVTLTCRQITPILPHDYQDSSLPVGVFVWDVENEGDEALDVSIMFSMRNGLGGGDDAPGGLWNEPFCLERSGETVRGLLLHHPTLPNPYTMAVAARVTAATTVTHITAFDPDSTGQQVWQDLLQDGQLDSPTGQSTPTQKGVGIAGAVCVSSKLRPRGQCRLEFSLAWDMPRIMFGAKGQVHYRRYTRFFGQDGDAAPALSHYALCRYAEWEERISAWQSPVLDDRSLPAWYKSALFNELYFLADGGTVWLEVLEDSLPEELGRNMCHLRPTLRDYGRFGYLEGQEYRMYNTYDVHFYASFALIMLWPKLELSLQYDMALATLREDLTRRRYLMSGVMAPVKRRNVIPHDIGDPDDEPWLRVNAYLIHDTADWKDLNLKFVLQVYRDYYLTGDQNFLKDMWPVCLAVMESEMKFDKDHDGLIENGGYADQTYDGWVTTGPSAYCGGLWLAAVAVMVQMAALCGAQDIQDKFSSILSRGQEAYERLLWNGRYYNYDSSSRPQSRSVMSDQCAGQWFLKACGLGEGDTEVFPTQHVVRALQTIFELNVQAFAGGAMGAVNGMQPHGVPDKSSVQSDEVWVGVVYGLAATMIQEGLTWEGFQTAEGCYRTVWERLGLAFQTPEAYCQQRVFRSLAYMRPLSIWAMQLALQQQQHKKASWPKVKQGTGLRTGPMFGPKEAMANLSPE
Chain of UniProt O14757 (whole entry, looked up): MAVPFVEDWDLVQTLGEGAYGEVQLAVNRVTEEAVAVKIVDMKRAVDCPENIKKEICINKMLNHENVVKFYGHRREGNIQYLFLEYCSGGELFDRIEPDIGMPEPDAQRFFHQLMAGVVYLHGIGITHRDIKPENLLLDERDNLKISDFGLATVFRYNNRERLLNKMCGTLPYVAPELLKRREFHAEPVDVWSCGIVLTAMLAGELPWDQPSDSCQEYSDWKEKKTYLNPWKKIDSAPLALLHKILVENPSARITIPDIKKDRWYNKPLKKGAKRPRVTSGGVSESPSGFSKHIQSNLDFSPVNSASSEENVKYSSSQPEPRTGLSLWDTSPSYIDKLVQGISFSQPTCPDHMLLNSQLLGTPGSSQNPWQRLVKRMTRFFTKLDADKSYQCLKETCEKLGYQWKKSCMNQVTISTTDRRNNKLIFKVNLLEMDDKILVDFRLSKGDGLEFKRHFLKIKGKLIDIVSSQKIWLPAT
Chain of UniProt Q05397 (whole entry, looked up): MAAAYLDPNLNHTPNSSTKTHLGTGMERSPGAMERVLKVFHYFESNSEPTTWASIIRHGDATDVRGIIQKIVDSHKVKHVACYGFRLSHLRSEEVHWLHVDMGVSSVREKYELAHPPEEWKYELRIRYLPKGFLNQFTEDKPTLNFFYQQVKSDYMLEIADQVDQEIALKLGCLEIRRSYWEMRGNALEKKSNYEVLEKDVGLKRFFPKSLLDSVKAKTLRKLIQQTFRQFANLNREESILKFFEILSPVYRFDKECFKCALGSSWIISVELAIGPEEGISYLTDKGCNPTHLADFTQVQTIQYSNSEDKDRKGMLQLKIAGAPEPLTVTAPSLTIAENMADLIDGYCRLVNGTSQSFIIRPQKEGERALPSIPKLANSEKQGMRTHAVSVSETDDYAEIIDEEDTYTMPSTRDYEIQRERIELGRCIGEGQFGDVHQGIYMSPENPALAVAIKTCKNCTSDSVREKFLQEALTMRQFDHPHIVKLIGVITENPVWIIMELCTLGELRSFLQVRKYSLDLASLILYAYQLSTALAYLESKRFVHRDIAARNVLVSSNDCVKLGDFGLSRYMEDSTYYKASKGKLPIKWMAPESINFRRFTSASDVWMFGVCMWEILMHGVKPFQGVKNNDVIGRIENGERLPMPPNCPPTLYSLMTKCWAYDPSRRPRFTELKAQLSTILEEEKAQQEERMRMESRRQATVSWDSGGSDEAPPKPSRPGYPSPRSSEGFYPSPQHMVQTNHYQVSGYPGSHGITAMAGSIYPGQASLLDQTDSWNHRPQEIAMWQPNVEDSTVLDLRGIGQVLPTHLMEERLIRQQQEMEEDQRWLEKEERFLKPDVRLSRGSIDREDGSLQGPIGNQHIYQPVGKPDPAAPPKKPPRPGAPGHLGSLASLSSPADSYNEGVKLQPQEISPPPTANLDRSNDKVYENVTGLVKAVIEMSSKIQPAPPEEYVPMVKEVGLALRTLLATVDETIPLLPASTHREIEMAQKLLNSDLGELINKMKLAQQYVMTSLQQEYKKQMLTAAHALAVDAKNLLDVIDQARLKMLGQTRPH
Chain of UniProt Q8IXJ6 (whole entry, looked up): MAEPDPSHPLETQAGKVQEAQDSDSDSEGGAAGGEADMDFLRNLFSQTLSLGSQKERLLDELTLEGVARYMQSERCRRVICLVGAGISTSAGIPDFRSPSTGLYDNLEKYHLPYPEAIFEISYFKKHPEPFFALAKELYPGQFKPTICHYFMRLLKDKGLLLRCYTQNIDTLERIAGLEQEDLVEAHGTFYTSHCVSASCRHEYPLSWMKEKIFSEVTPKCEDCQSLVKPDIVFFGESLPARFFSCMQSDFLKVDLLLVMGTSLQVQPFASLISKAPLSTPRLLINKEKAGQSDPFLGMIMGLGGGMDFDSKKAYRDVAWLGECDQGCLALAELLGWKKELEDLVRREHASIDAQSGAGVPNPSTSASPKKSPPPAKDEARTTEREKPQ
Chain of UniProt P42681 (whole entry, looked up): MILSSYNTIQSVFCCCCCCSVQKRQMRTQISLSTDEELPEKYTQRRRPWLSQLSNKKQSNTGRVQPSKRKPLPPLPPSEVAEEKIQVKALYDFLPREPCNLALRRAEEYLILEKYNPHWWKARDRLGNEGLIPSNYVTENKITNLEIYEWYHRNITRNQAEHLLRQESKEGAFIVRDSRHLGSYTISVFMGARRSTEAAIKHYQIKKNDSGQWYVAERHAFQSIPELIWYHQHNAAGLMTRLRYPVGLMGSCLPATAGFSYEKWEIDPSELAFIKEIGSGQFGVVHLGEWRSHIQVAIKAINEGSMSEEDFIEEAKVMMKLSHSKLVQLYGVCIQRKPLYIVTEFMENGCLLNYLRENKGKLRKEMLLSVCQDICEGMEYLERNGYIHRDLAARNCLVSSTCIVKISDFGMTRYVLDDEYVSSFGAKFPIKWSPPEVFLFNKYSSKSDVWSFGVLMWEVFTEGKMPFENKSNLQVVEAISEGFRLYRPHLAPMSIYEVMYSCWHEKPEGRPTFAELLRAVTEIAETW
Chain of UniProt Q9NSU2 (whole entry, looked up): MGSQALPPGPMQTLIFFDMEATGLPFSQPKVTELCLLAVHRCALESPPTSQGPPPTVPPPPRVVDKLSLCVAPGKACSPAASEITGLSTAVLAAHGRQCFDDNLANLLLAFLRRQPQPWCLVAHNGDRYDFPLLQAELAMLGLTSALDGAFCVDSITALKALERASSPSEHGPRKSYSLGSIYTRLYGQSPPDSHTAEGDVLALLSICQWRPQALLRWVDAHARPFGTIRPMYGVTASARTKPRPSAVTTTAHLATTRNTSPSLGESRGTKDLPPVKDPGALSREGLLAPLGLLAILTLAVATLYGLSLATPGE

With `Cc1c(Cc2cccc(OC(C)(C)C(=O)O)c2)c2ccc(C(=O)N[C@@H](C)c3ccc(C(F)(F)F)cc3)cc2n1C` the IC50 was 18800 nM (PPARA ligand-binding domain; reporter gene, luciferase reporter; HEK293T, Gal4-PPARα LBD).
With `O=C(NCCCN1CCCC1=O)c1ccccc1NC(=O)C(C(F)(F)F)C(F)(F)F` the IC50 was 12000 nM (Chymotrypsinogen A; enzyme activity, inhibitor, fluorescence).
With `Cc1c(Cc2cc(Cl)cc(OC(C)C(=O)O)c2)c2ccc(C(=O)NC(C)c3ccc(C(C)(C)C)cc3)cc2n1C(C)C` (stereo not shown) the IC50 was 1130 nM (PPARA ligand-binding domain; reporter gene, luciferase reporter; HEK293T, Gal4-PPARα LBD).
`N#Cc1cnc(NC(=O)Nc2ccc([N+](=O)[O-])cc2)cn1` gave an IC50 of greater than 10000 nM (CHEK1 (Homo sapiens, UniProt O14757); enzyme activity, inhibitor).
For `COc1ccc(N(C)C2=C(c3ccccc3)C(=O)NC2=O)cc1`, the IC50 was greater than 41000 nM (Sensor histidine kinase AirS (Staphylococcus aureus, UniProt Q2FX96); autophosphorylation, inhibitor, BODIPY-FL-ATPγS in-gel fluorescence; lower bound of confidence interval).
For `Cc1c(Cc2cc(F)cc(OC(C)(C)C(=O)O)c2)c2ccc(C(=O)N[C@@H](C)c3cc(F)cc(C(C)(C)C)c3)cc2n1CC(C)C`, the IC50 was greater than 100000 nM (PPARA ligand-binding domain; reporter gene, luciferase reporter; HEK293T, Gal4-PPARα LBD).
`O=C1/C(=N\c2ccc(Cl)cc2Br)c2ccccc2N1Cc1cccc(Cl)c1` (mixture of isomers) has an IC50 of 2.16 nM (PIK3CG (Homo sapiens, UniProt P48736); enzyme activity, inhibitor, ADP detection).
`O=C(Nc1ccc(C(=O)Nc2ccc3c(O)cc(S(=O)(=O)O)cc3c2)cc1)c1ccccc1` gave an IC50 of 3520 nM (TREX1 (Homo sapiens, UniProt Q9NSU2); protein-nucleic acid interaction, inhibitor, FP).
`CCn1nc(Cl)c2c1-c1cnc(N)c(c1)O[C@H](C)c1cc(F)ccc1-c1nn(C)cc1C2` gave an IC50 of 21 nM (PTK2 (Homo sapiens, UniProt Q05397); enzyme activity, inhibitor, radiometric).
`Cc1cc(C)nc(SCC(=O)Nc2ncc(Cc3cccc(OCc4cn(-c5ccc(Cl)cc5)nn4)c3)s2)n1` has an IC50 of 110 nM (SIRT2 (Homo sapiens, UniProt Q8IXJ6); enzyme activity, inhibitor, fluorescence).
The IC50 of `Cc1nn(-c2cccc(N)c2)c(=O)c2cnc(Nc3ccc(N4CCNCC4)cc3)nc12` is reported as greater than 10000 nM (TXK (Homo sapiens, UniProt P42681); enzyme activity, inhibitor).
The IC50 of `Cc1ccc(S(=O)(=O)N/N=C/c2ccsc2B(O)O)cc1` is reported as greater than 100000 nM (PLAU (Homo sapiens, UniProt P00749); enzyme activity, inhibitor).
`COc1cc(-c2nn(C3CCC(N4CCN(C(C)=O)CC4)CC3)c3ncnc(N)c23)ccc1NC(=O)c1cc2ccccc2n1C` (stereo not shown) has an IC50 of 68 nM (ERBB3 (Homo sapiens, UniProt P21860); cell-free assay, TR-FRET).
`OC[C@H]1[C@@H](O)[C@H](O)[C@@H](O)CN1CCCCCOCc1ccc(-c2ccccc2)cc1C(F)(F)F` has an IC50 of 0.1 nM (GBA2; inhibitor, 4MU-β-D-glucopyranoside; HEK293T homogenates overexpressing GBA2).
With `C[C@H](NC(=O)C(C(F)(F)F)C(F)(F)F)c1ccccc1` the IC50 was greater than 100000 nM (Chymotrypsinogen A; enzyme activity, inhibitor, fluorescence).
With `CCCCCN1C[C@@H](O)[C@H](O)[C@H](O)[C@@H]1CO` the IC50 was 250 nM (GBA2; inhibitor, 4MU-β-D-glucopyranoside; HEK293T homogenates overexpressing GBA2).
For `O[C@H]1[C@H](O)[C@@H](O)c2[nH]cnc2[C@@H]1O`, the IC50 was greater than 50000 nM (GBA2; HEK293 lysate overexpressing enzyme; pH 5.8, added: 4-MU-β-D-glucopyranoside).
For `CC(C)CCC[C@@H](C)[C@H]1CC[C@H]2[C@@H]3CC=C4C[C@@H](OCCCCCN5C[C@H](O)[C@@H](O)[C@H](O)[C@@H]5CO)CC[C@]4(C)[C@H]3CC[C@]12C`, the IC50 was 20 nM (GBA2; inhibitor, 4MU-β-D-glucopyranoside; HEK293T homogenates overexpressing GBA2).
`CC(C)(C)OC(=O)COc1ccccc1NC(=O)C(C(F)(F)F)C(F)(F)F` gave an IC50 of 15000 nM (Chymotrypsinogen A; enzyme activity, inhibitor, fluorescence).
